Measured values of several laboratories.
Every numbered part comes from another study and shows a few of its results, in no order. Substitutions count along the parent as printed.

Sample 1
Target: CCNE1, cyclin fold, Cln2 fusion (human)
Method: yeast growth competition, sequencing
Matrix: yeast
Setting: strong parent motif
Reference: not given
Reading: higher = stronger binding
Parent: GMNC docking peptide (human); KNAKRNLSSEFAN
`KNWKRNLSSEFAN [A3W]`: “normalised enrichment score” 0.821.
`KNALRNLSSEFAN [K4L]`: “normalised enrichment score” 0.634.
Under “normalised enrichment score”, `KNAKKNLSSEFAN [R5K]` is recorded as 0.287.
`KNAKRNLSSSFAN [E10S]`: “normalised enrichment score” 0.35.
`KNAKRNLSSEFNN [A12N]`: “normalised enrichment score” 1.54.
`KNAKRNLSSEFDN [A12D]` — result for “normalised enrichment score”: 2.33.
`KNAKRNLSSDFAN [E10D]`: “normalised enrichment score” 0.545.
For `KNAKTNLSSEFAN [R5T]`, “normalised enrichment score” read 0.0723.
`KNAKRNLSCEFAN [S9C]`: “normalised enrichment score” 0.969.
`KNAFRNLSSEFAN [K4F]`: “normalised enrichment score” 0.643.
`KNTKRNLSSEFAN [A3T]` — result for “normalised enrichment score”: 0.555.
`KNAKFNLSSEFAN [R5F]`: “normalised enrichment score” 0.014.
Under “normalised enrichment score”, `KNAKRNLSSEFRN [A12R]` is recorded as 0.717.
`KNAKRNVSSEFAN [L7V]`: “normalised enrichment score” 0.291.
`KNADRNLSSEFAN [K4D]` — result for “normalised enrichment score”: 0.146.
Under “normalised enrichment score”, `KNAKRNLSSVFAN [E10V]` is recorded as 0.772.
`KNAKRMLSSEFAN [N6M]` — result for “normalised enrichment score”: 0.169.
For `KNAKRNLGSEFAN [S8G]`, “normalised enrichment score” read 0.719.
For `KNAKRNLSSEFCN [A12C]`, “normalised enrichment score” read 1.45.

Sample 2
Target: UBE2C UBC core domain (UniProt O00762)
Method: yeast two-hybrid
Matrix: yeast
Setting: mostly zero background
Reference: not given
Reading: higher = stronger interaction
B1: TRIM8 RING domain (UniProt Q9BZR9); chain WKNCFEEELICPICLHVFVEPVQLPCKHNFCRGCIGEAWAKDSGLVRCPECNQAYNQKPGLE
B2: RC3H2 RING domain (UniProt Q9HBD1); chain QAAQWTEFLSCPICYNEFDENVHKPISLGCSHTVCKTCLNKLHRKACPFDQTAINTDIDVL
B3: ZNF598 RING domain (UniProt Q86UK7); chain AAAPERGGGSCVLCCGDLEATALGRCDHPVCYRCSTKMRVLCEQRYCAVCREELRQVVFGK
B4: ARK2C RING domain (UniProt Q6ZSG1); chain EGEESDTDEKCTICLSMLEDGEDVRRLPCMHLFHQLCVDQWLAMSKKCPICRVDIETQLGAD
B5: UHRF2 RING domain (UniProt Q96PU4); chain CGGDPEKKCHSCSCRVCGGKHEPNMQLLCDECNVAYHIYCLNPPLDKVPEEEYWYCPSCKTDSSEVVKAGER
B6: PHF21A RING domain (UniProt Q96BD5); chain SPTSTDGDIHEDFCSVCRKSGQLLMCDTCSRVYHLDCLDPPLKTIPKGMWICPRCQDQMLKKEEAIPW
B7: RNF25 RING domain (UniProt Q96BH1); chain LTDNNIPHGQCVICLYGFQEKEAFTKTPCYHYFHCHCLARYIQHMEQELKAQGQEQEQERQHATTKQKAVGVQCPVCREPLVYDLASL
B8: TRIM63 RING domain (UniProt Q969Q1); chain PMENLEKQLICPICLEMFTKPVVILPCQHNLCRKCANDIFQAANPYWTSRGSSVSMSGGRFRCPTCRHEVIMDRHGV
Target sequence (chain): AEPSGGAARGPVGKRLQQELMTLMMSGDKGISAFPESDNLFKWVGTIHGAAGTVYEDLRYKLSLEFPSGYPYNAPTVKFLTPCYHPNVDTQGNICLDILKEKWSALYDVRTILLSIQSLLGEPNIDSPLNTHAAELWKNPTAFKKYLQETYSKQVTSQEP
Under “lacZ reporter activity”, `QHHELTSLFECPVCFDYVLPPILQCQAGHLVCNQCRQKLSCCPTCRGALTPSIRNL (SIAH2 RING domain (UniProt O43255))` is recorded as 0.
`B1 (TRIM8 RING domain)`: “lacZ reporter activity” 0.
`B2 (RC3H2 RING domain)` — result for “lacZ reporter activity”: 0.
Under “lacZ reporter activity”, `B3 (ZNF598 RING domain)` is recorded as 0.
`QLRRLQEERTCKVCMDKEVSIVFIPCGHLVVCKDCAPSLRKCPICRSTIKGTVRTF (BIRC3 RING domain (UniProt Q13489))`: “lacZ reporter activity” 0.
`DAIPSLSECQCGICMEILVEPVTLPCNHTLCKPCFQSTVEKASLCCPFCRRRVSSWTRYH (RNF168 RING domain (UniProt Q8IYW5))`: “lacZ reporter activity” 0.
Under “lacZ reporter activity”, `FPEHFVKSISCQICEHILADPVETNCKHVFCRVCILRCLKVMGSYCPSCRYPCFPTDLES (RAG1 RING domain (UniProt P15918))` is recorded as 0.
`B4 (ARK2C RING domain)` — result for “lacZ reporter activity”: 0.
`RLTMMWEEVTCPICLDPFVEPVSIECGHSFCQECISQVGKGGGSVCPVCRQRFLLKNLRP (TRIM21 RING domain (UniProt P19474))`: “lacZ reporter activity” 0.
Under “lacZ reporter activity”, `B5 (UHRF2 RING domain)` is recorded as 0.
For `B6 (PHF21A RING domain)`, “lacZ reporter activity” read 0.
Under “lacZ reporter activity”, `B7 (RNF25 RING domain)` is recorded as 0.
`B8 (TRIM63 RING domain)` — result for “lacZ reporter activity”: 0.

Sample 3
Target: Histone acetyltransferase KAT6A, winged helix 1, GST fusion (KAT6A, Homo sapiens, UniProt Q92794, residues 1-85)
Method: protein binding microarray
Molecule type: double-stranded DNA, one strand shown
Matrix: in vitro
Tested at: not given
Setting: 8-mer, flanks averaged, mean of 2 arrays, mostly near background
Reference: not given
Reading: higher = stronger binding
Residues (chain): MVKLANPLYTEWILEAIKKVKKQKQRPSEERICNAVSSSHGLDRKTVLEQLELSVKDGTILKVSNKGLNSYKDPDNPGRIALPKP
`CGAGGCCC` gave an E-score of 0.118.
With `CAACCCAG` the E-score was -0.121.
For `GCACCTCC`, the E-score was 0.061.
The E-score of `CTCAGGCA` is reported as -0.136.
`CGAGCGTC` gave an E-score of 0.233.
`TATAGAAA` has an E-score of -0.162.
For `AACTTGGT`, the E-score was -0.0815.
The E-score of `CGAGGGTA` is reported as 0.0118.
`AAGTTCTG` has an E-score of -0.168.
For `ATCCTCCG`, the E-score was 0.0221.
`GGCCGTAC` has an E-score of 0.382.
`GGTCGTGA` has an E-score of -0.0168.
The E-score of `ATCTGACA` is reported as -0.206.
`ACACGTGG` gave an E-score of -0.26.
With `ACATAAAG` the E-score was -0.166.
`CAATAGAC` gave an E-score of -0.111.
`CACTCGCG` gave an E-score of 0.304.
`ACTATATA` has an E-score of -0.115.
For `AGGGTGTC`, the E-score was -0.171.
`CCGAAGCG` gave an E-score of 0.277.
For `ATAGCGAT`, the E-score was -0.0439.
The E-score of `CGATTCTA` is reported as -0.0416.
With `ACCACGGC` the E-score was 0.169.
For `CACTACCA`, the E-score was -0.134.
The E-score of `GGGAAAGA` is reported as -0.18.

Sample 4
Target: Interferon regulatory factor 3, full length, phosphomimetic (IRF3, Homo sapiens, UniProt Q14653, residues 1-427, S386D/S396D/S398D/S402D/T404D/S405D)
UniProt Q14653, sequence (whole entry, unmodified, looked up): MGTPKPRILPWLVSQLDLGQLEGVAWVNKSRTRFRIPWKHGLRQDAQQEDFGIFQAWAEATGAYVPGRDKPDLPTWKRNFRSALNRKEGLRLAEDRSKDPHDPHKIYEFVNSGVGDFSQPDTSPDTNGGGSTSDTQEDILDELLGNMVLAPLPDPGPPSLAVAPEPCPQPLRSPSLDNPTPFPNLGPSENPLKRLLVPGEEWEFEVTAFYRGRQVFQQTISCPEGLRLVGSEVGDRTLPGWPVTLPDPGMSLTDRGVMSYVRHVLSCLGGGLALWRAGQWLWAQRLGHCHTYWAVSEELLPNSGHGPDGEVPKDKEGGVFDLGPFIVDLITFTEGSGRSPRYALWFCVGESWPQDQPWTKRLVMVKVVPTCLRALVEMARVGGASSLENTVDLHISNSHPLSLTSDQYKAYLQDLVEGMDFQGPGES
Method: protein-binding microarray
Molecule type: double-stranded DNA, one strand shown
Matrix: in vitro
Tested at: 2540 nM top
Setting: 60-bp whole probe
With: salmon DNA 0.4 mg/ml
Reference: random background probes
Reading: higher = stronger binding
Constant ends, left off below: GCCTAGCAC … GTCTTGATTCGCTTGACGCTGCTG
For `GACGGTCTCGGTTCCGGGACGTGCTAG`, “fitted relative affinity” read 2.56 z-score.
`TCAACTTTAACTTATTCTACTGTGCTA` — result for “fitted relative affinity”: 0.309 z-score.
`TAAGGTATCCTTATCCTTTAGTGCTAG`: “fitted relative affinity” 5.47 z-score.
Under “fitted relative affinity”, `GACGAGATCAGTATCGAGACGTGCTAG` is recorded as 1.04 z-score.
`GACGGACTTCTTATCCTGACGTGCTAG`: “fitted relative affinity” 0.167 z-score.
For `GACGATATTGGGTATCGAGACGTGCTA`, “fitted relative affinity” read -0.0242 z-score.
For `TTAGGTTTCGGGTATCCGTTAGTGCTA`, “fitted relative affinity” read 4.54 z-score.
`ATGCTTCTGTATTCATGAAGGTGCTAG` — result for “fitted relative affinity”: 0.217 z-score.
Under “fitted relative affinity”, `AACGATATCAGTTTCGAGACGTGCTAG` is recorded as 3.47 z-score.
`GACGGACTGGGGTTTCGGGAAGTGCTA`: “fitted relative affinity” 0.255 z-score.
For `GACGGTATCGACTATCGTGACGTGCTA`, “fitted relative affinity” read 0.482 z-score.
`TCAGCTTCCTCTTTCACACTGTGCTAG`: “fitted relative affinity” 1.88 z-score.
For `GACGATATCGGTATCGAGACGTGCTAG`, “fitted relative affinity” read 1.54 z-score.
`GAAATTTTCCCCTACTGTATGTGCTAG` — result for “fitted relative affinity”: 1.63 z-score.
`TCATACATGTGTTTAAGACTGTGCTAG` — result for “fitted relative affinity”: 0.0813 z-score.
`GACGATTTCGGGTAACGAGACGTGCTA`: “fitted relative affinity” 1.45 z-score.
